Assay results pooled from the literature.
A part holds a random share of what one study measured.

Sample 1
Target: Interferon regulatory factor 5, full length, phosphomimetic (IRF5, Homo sapiens, UniProt Q13568-2, residues 1-514, S451D/S453D/S456D/S462D)
Technique: protein-binding microarray
Form: double-stranded DNA, one strand shown
Medium: in vitro
Concentration: 940 nM top
Notes: 60-bp whole probe
With: salmon DNA 0.4 mg/ml
Relative to: random background probes
Reading: higher = stronger binding
Constant ends, left off below: GCCTAGCAC … GTCTTGATTCGCTTGACGCTGCTG
| Oligonucleotide | fitted relative affinity |
| --- | --- |
| TTAGGTATCCTTATCCTTTAGTGCTAG | 0.517 z-score |
| GACGATTTCTGACTGGAGACGTGCTAG | 0.0715 z-score |
| GACGGTTTCGATTCCGGGACGTGCTAG | 12.4 z-score |
| TTAGGTCTCCTTATCCTATAGTGCTAG | 0.634 z-score |
| GACGATTTCAGACTGTAGACGTGCTAG | -0.119 z-score |
| TAGGTTTTCTGGTTCCCATTGTGCTAG | 0.992 z-score |
| GACGGTATCGGGTTTCGGCACGTGCTA | 5.4 z-score |
| TATGTCTGGCCCAAGCAGCCGTGCTAG | -0.586 z-score |
| ATATATATCCATTATAGATGGTGCTAG | -0.256 z-score |
| GACGATTTCAGTTTCAAGACGTGCTAG | 1.66 z-score |
| TCACCCTTGCTTTCCAAACTGTGCTAG | 0.847 z-score |
| TAAGATATCGGGTATCGATTAGTGCTA | 3.24 z-score |
| GACGGTATCCTCCTCCTGACGTGCTAG | 0.59 z-score |
| TTCTCTTTCATTGCTGCCCTGTGCTAG | 2.2 z-score |
| TCACCCCTCAGATCTGCCACTGTGCTA | 0.0508 z-score |
| CACGGTTCCCTTTTCCTGACGTGCTAG | 0.706 z-score |
| CCCACCCTCAGGGAGCCTGTGTGCTAG | -0.247 z-score |
| TTCCTTTGCTTTCTCCCAAGGTGCTAG | 2.13 z-score |
| TTAGGTCTCGGTTTCGATTAGTGCTAG | 8.86 z-score |

Sample 2
Target: Sal-like protein 4, full length isoform B (SALL4, Homo sapiens, UniProt Q9UJQ4-2, residues 1-616)
Technique: universal PBM
Form: double-stranded DNA, one strand shown
Medium: in vitro
Concentration: not given
Notes: 8-mer, flanks averaged, mean of replicates
Reading: higher = stronger binding
Construct (chain): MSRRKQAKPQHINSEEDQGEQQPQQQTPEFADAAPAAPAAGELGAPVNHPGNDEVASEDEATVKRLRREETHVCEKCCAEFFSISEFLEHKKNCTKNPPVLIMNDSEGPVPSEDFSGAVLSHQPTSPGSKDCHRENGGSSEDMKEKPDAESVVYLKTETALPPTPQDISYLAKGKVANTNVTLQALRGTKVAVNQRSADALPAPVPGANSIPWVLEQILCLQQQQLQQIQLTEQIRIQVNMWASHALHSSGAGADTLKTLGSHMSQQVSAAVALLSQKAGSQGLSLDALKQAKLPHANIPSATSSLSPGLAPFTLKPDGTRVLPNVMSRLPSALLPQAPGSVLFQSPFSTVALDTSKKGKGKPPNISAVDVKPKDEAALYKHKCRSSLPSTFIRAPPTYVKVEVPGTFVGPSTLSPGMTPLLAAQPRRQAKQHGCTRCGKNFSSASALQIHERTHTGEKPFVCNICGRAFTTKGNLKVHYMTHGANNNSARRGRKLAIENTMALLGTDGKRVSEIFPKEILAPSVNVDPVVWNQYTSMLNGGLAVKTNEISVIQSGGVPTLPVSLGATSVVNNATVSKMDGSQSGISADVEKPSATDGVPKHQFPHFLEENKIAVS
| Oligonucleotide | E-score |
| --- | --- |
| AGCATGGA | -0.0997 |
| GTATCGAC | 0.0638 |
| AACACAGA | 0.0588 |
| CGGCAGTC | -0.202 |
| AGTGTTCG | -0.0795 |
| AACCAGGT | -0.138 |
| GCCTGCAC | -0.319 |
| CAGTACTG | -0.229 |
| ATAACTTA | 0.375 |
| CAATTGTA | 0.0509 |
| CCTTGGTA | -0.0303 |
| GGACTCCA | -0.15 |
| GCCGCCCC | -0.389 |
| CAGGTTGG | -0.205 |
| GATACCGA | -0.0462 |
| ATCGACCC | -0.149 |
| ATGGACTC | -0.0957 |
| CGTCCAGA | -0.151 |
| GGAGTTCA | -0.135 |
| CACTGAAG | -0.0363 |
| ACAAGTAC | 0.104 |
| GGCAGCGA | -0.258 |
| ATCTCCTC | -0.039 |
| CTTCCAGC | -0.268 |
| AACTCGAG | -0.0971 |

Sample 3
Target: RNA binding protein fox-1 homolog 2, RRM domain, GST-SBP tag (RBFOX2, Homo sapiens, UniProt O43251-10, residues 100-194)
Technique: RNA Bind-n-Seq
Form: RNA
Medium: in vitro
Concentration: 365 nM
Notes: natural RNA segment, single round, ends assumed
Relative to: no-protein control
Reading: higher = stronger binding
| Oligonucleotide | RBNS enrichment (R) |
| --- | --- |
| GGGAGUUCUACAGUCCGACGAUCUUUAAUUGUGGAAAAUGAUUAUGAAGAACAUGUGUAUUUCUAUCUGGUAGUGAUGUAUAUUUUACAUUUGUCAUUUCAGUGUUACUGGAGUUUUCUUCAUUGUGCACACAUGGAAUUCUCGGGUGCCAA | 0.699 |
| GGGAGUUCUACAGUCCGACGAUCAGAGCCCCCAGGUGCUGUUUGCUCAGGAGGCUGCUGUGGGGGUGCCUUCCUCAGCCUCUGGCCCUCUUGGCUCAGAUUCAAUCAAAUGUUGCUUCCCUCUCCUGUCUUUCUGGAAUUCUCGGGUGCCAA | 0.717 |
| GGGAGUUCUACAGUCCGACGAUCGUCUUGGCCCUGUCCCUGCCCUGGGGUCCAGCAGGUCAUCCCUCCCUUCUUCUCUCUCCUUUGGCGUUUGUUCCUGUAGUCACUGGGCUAAUCUCCCCCUAGCUUCAAGCUGGAAUUCUCGGGUGCCAA | 0.747 |
| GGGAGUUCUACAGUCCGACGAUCUUUGAAUGCUUUUGUUUCCUAAGAGAUAAUGGCAUGGUUUCAUAUGUUAUACUUUGGACAGACAGAGUUUUAAAAAUGGAAUUAUUUUUUCUUUCAUGCCUCUUGUAAUGUGGAAUUCUCGGGUGCCAA | 0.464 |
| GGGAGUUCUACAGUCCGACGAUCAAUUUAGAAAAACAACAAAGGCUGUUUUUCCUAAUUUUGGCAUGAACCCCUUGUUCCAAGUGAAGGCGGCAUCACGAGUGGCUCCGAGGCGUCUGCAGUGCCCAGGGUGCUGGAAUUCUCGGGUGCCAA | 0.492 |
| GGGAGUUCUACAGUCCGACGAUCAAUCUCUUGCACCACCUAUUCUUACUUCCUGUUCAGCUCCUUUACAGCUUUUAUUUUCAACUGCUUCCCAACUUGGUGGGGCCUCCUUUAAGGAUGAGCCAAUAGUAAGAUGGAAUUCUCGGGUGCCAA | 0.702 |
| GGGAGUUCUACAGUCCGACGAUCUCAUUACAGAGGUAUGUCUUUGGUUCUUAAACUAUCUGUCUAAAAUAAAGCUGUAAAAAAUUAACAGCUUUAAAAGGCAACUUUUUUUUAAGUGGUAUAUUGUGAACUUUUGGAAUUCUCGGGUGCCAA | 0.419 |
| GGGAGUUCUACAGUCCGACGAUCUAGUCUGUGAGGGAGGAACUCCCAGCAUCCCCAUUGCCCACAAAUGGAAUCCUCACUGUAUCCACUAGGAGAUUAGAAAUUAAGGUUUCUUCACUACUUCUAUGGUAGGGUGGAAUUCUCGGGUGCCAA | 1.04 |

Sample 4
Target: Histone acetyltransferase KAT6A, both winged helices, GST fusion (KAT6A, Homo sapiens, UniProt Q92794, residues 1-181)
Technique: protein binding microarray
Form: double-stranded DNA, one strand shown
Medium: in vitro
Concentration: not given
Notes: 8-mer, flanks averaged, mean of 2 arrays, mostly near background
Relative to: not given
Reading: higher = stronger binding
Construct (chain): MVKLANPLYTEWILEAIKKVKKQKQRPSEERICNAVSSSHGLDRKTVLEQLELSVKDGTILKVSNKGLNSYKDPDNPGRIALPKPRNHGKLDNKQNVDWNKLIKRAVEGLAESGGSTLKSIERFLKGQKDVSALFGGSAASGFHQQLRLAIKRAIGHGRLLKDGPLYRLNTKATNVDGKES
| Oligonucleotide | E-score |
| --- | --- |
| CTACTCGA | 0.00621 |
| GGGCCTAC | -0.0503 |
| CCCGGATC | 0.0175 |
| TAGATATA | -0.0472 |
| ACGGTCCG | 0.275 |
| GATATCCC | 0.114 |
| CATGCCAG | -0.137 |
| AACATCGT | -0.0394 |
| GATTTCTA | 0.0623 |
| GGCTCGCA | 0.0328 |
| GAAAAGAC | 0.00253 |
| GTGGGCAA | -0.109 |
| ACTAAGTC | -0.125 |
| GAATTGGA | -0.062 |
| AGTATCTG | -0.275 |
| GGTCGACA | 0.0443 |
| GCGGCGGA | 0.357 |
| CACGATCA | -0.0509 |
| AGTGATTC | -0.102 |
| TTTCGAAA | -0.0142 |
| GGCCATAA | -0.16 |
| ATAATCTC | -0.0868 |
| CTATATTC | -0.111 |
| ATCAAATA | -0.124 |
| AACCACTT | -0.17 |
